Experimental data of several laboratories.
Each line is one published result; not all experiments were run side by side. Several values in a cell are separate wells, animals, samples, runs or records. ± gives the spread as reported. Converted amounts (≈) assume the structure as drawn.

SMILES	target or system	assay	system	setting	how to read	endpoint	result
C[C@]12CC[C@H](O)C[C@H]1CC[C@@H]1[C@@H]2CC[C@]2(C)[C@@H](c3ccc(=O)oc3)CC[C@]12O	MCF7 with control siRNA	annexin V flow cytometry	–	concentration not given, 48 h	–	apoptotic cells	17.2% and 15.4% and 16%
COc1c(C)c2c(c(O)c1C/C=C(\C)CCC(=O)O)C(=O)OC2	JAR	cell proliferation	–	–	–	IC50	355 nM
CC(=O)NC1CCSC1=O (stereo not drawn)	THP-1	pyroptotic LDH release	–	2 µM, 40 min, with: LPS then nigericin	–	inhibition	-7.46%
C[C@@H](O)[C@H]1C(=O)N2C(C(=O)O)=C(S[C@@H]3CN[C@H](C(=O)N(C)C)C3)[C@H](C)[C@H]12	Escherichia coli DH5α expressing KPC-180	bacterial growth	–	–	–	MIC	0.5 µg/mL (≈ 1.3 µM)
Oc1ccc(C2(c3ccc(O)cc3)c3ccccc3-c3ccccc32)cc1	HepG2 spheroids	Hoechst flow cytometry	–	1 µM, 96 h	–	G2 phase cells	21.6 ± 1.79%
CCn1cc(-c2cc(Cn3ccoc3=N)cc3c2CCN([C@@H](C)c2cc(OC)ccn2)C3=O)c(C(F)(F)F)n1	T47D	cell growth, inhibitor	–	120 h	–	EC50	156 nM
CC[C@H](C)[C@H]1O[C@]2(C=C[C@@H]1C)C[C@@H]1C[C@@H](C/C=C(\C)[C@@H](O[C@H]3C[C@H](OC)[C@@H](O[C@H]4C[C@H](OC)[C@@H](O)[C@H](C)O4)[C@H](C)O3)[C@@H](C)/C=C/C=C3\CO[C@@H]4[C@H](O)C(C)=C[C@@H](C(=O)O1)[C@]34O)O2	THP-1	pyroptotic LDH release	–	2 µM, 40 min, with: LPS then nigericin	–	inhibition	10.4%
CC(C)(C)c1cc(C=C(C#N)C#N)cc(Br)c1O	hCMEC/D3	outcome: decreased, Western blot, measured: insulin receptor β	–	100 µM, with: insulin 100 nM	–	membrane expression	decreased
C[C@@]12OC(=O)[C@]1([C@@H](O)[C@@H]1C=CCCC1)NC(=O)[C@@H]2CCCl	HEK293T ATF4-FLuc reporter	ATF4 reporter gene, activator, luciferase reporter	–	–	–	EC50	130 nM
Cc1cc(C(C)(C)c2ccc(O)c(C)c2)ccc1O	HepG2 spheroids	Hoechst flow cytometry	–	1 µM, 96 h	–	G1 phase cells	72.8 ± 8.34%
C/C=C(/C)C(=O)O[C@H]1C(C)=C2[C@H]([C@@H]1OC(=O)CCCCCCC)[C@@](C)(OC(C)=O)C[C@H](OC(=O)CCC)[C@@]1(O)[C@H]2OC(=O)[C@@]1(C)O	HEK-293T	RNA-seq GSEA, measured: Hallmark heme metabolism	–	500 nM, 6 h	direction not given	normalized enrichment score	1.61
O=C1CCP(=S)(c2ccccc2)CC1	SW-620	ELISA	–	IC50, 72 h	–	IL-6 level	0.3 ± 0.01 pg/mL
CN1C(=O)CCS(=O)(=O)C1c1ccc(Cl)cc1 (stereo not drawn)	THP-1	pyroptotic LDH release	–	2 µM, 40 min, with: LPS then nigericin	–	inhibition	-1.58%
O=C1N(Cc2ccccc2Cl)c2ccccc2C12NN=C(c1ccccc1)S2 (stereo not drawn)	MDA-MB-468	gene expression array, measured: CCDC167 mRNA	–	10 µM, 12 h	relative to: untreated, up	fold change	1.52
COc1cc(CCC[P+](c2ccccc2)(c2ccccc2)c2ccccc2)c(OC)c2c1OCO2.[I-]	NCI/ADR-RES	SRB	–	–	–	Log10LC50	> -4 log M
CC(C)N1CCC(NC2CCN(c3cccc(-c4cc5cc(F)ccc5[nH]4)c3)CC2)CC1	OVCAR-4	–	–	–	–	GI50	1890 nM
Cn1nccc1Nc1nccc(-c2ccn([C@H](CO)c3ccc(Cl)c(F)c3)c(=O)c2)n1	HCT116	IncuCyte	–	concentration not given, 32 (unit not given)	–	PI-positive cells	8.42 count and 6.5 count and 10.2 count
CC(=O)O[C@H]1CC[C@@]2(C)[C@H](CC[C@@H]3[C@@H]2CC[C@]2(C)[C@@H](C4=CC(=O)OC4)[C@@H](OC(C)=O)C[C@]32O)C1	human iPSC cardiomyocytes	plate-normalised	–	concentration not given, hit retest	relative to: vehicle controls, SDs below control	MyBP-C level change	11.9 SD
NC(=O)c1[nH]nc([C@@H]2O[C@H](CO)[C@@H](O)[C@H]2O)c1O	human coronavirus OC43	virus-induced cell killing	MRC-5	screen	–	maximum inhibition	20.2%
Cc1cnc2ccc3c(nc(N)n3C)c2n1	BALB/c 3T3	colony forming efficiency	–	50 µM	–	colony number	89 colonies per plate and 93 colonies per plate

SMILES	target or system	assay	system	setting	how to read	endpoint	result
Nc1ncnc2c1ncn2[C@@H]1O[C@@H]2COP(=O)(O)O[C@H]3[C@@H](O)[C@H](n4cnc5c(=O)[nH]cnc54)O[C@@H]3COP(=O)(O)O[C@H]2[C@H]1O	HFF-1	RNA sequencing, measured: Reactome endosomal/vacuolar pathway	–	upregulated pathways	relative to: mock	fold enrichment	28.4
COc1c(CCC[P+](c2ccccc2)(c2ccccc2)c2ccccc2)cc2c(c1OC)OCO2.[I-]	OVCAR-5	SRB	–	–	–	GI50	-5.56 log M
CC(c1ccccc1)(c1ccc(O)cc1)c1ccc(O)cc1	HepG2 spheroids	Hoechst flow cytometry	–	0.10 µM, 96 h	–	G2 phase cells	18.1 ± 4.02%
CN(C)C(=S)SSC(=S)N(C)C	LUHMES MT1G-HiBiT G3	measured: MT1G	–	2 µM, 24 h	relative to: DMSO, maximum	luciferase activity	325 fold
NCCc1ccc(S(=O)(=O)F)cc1	human coronavirus OC43	virus-induced cell killing	MRC-5	screen	–	maximum inhibition	6.34%
OC1CCN(c2ccc(/C=N/NC(=S)Nc3ccc(F)cc3)cc2)CC1	BEAS-2B and A549	MTT	–	–	relative to: IC50 BEAS-2B over IC50 A549	selectivity ratio	10.3
C=C(C)[C@H]1Cc2c(ccc3c2O[C@@H]2COc4cc(OC)c(OC)cc4[C@@H]2C3=O)O1	ReNcell VM	YO-PRO-1 staining	–	24 h	–	lowest concentration increasing apoptotic cells	≤ 0.78 µM
N[C@@H](C[18F])C(=O)O	U-87 MG	–	–	concentration not given, with: L-serine	–	inhibition of cellular uptake	73%
CN1CCN(C2(CNC3CCN(c4cccc(-c5cc6cc(F)ccc6[nH]5)c4)CC3)CCC2)CC1	KM12	–	–	–	–	GI50	1420 nM
COC[C@@H]([C@H](O)[C@H](O)C(=O)NCC[C@H](C)c1nc(/C=C/C[C@@H]2O[C@]3(C[C@@H](O)[C@@H]2C)O[C@H]([C@H](C[C@H](O)[C@H](C)[C@H](O)[C@H](C)/C=C(C)/C(C)=C/C=C/C(C)=C\C#N)OC)[C@H](OP(=O)(O)O)C3(C)C)co1)N(C)C	MDA-MB-231 BAX/BAK siRNA knockdown	cell viability, CellTiter-Glo	–	–	direction not given	Z score	1.21
O=c1cc(-c2ccc(O)cc2)oc2cc(O)cc(O)c12	SH-SY5Y Aβ-GFP cells	Aβ aggregation inhibition, GFP folding reporter	–	–	–	EC50	5300 nM
Nc1ncc(-c2nc(N3CCOCC3)nc(N3CCOCC3)n2)c(C(F)F)n1	SUP-T1	–	–	72 h	–	GI50	276 nM
CCN(CC)c1ccc(C=NNC(=O)CSc2nc3ccccc3c(=O)n2Cc2ccc(S(N)(=O)=O)cc2)c(O)c1	OVCAR-5	NCI five-dose screen	–	–	–	CC50	> 100000 nM
COc1cc(C[C@@H](C)[C@@H](C)Cc2cc(O)c(OC)c(OC)c2)cc(O)c1OC	THP-1, PMA-differentiated	–	–	10 µM, 24 h, with: LPS 1 µg/mL	relative to: LPS model	IL-6 mRNA level	decreased
COc1ccc2c(c1)[nH]c1c(C)nccc12	DU-145	bisulfite pyrosequencing, measured: RASSF1A promoter CpG site 20	–	10 µM, 16 h	–	DNA methylation	83.8%
Cc1nn(-c2nc3ccc(Cl)c(Cl)c3[nH]2)c(O)c1C1OC(=O)c2ccccc21 (stereo not drawn)	RAW-ISG	CCK-8	–	0.1 µM	–	viability	99.8% and 104% and 93.7% and 110% and 106%
Oc1ccc(C(c2ccc(O)cc2)(C(F)(F)F)C(F)(F)F)cc1	HepG2 spheroids	Hoechst flow cytometry	–	10 µM, 96 h	–	G1 phase cells	69.4 ± 8.51%
Cn1cncc1C1=CN(c2ncnc3[nH]cnc23)CCS1	COLO 205	–	–	colon cancer	–	CC50	> 200000 nM
Oc1cc(Cl)ccc1Oc1ccc(Cl)cc1Cl	HepG2	measured: NF-κB nuclear translocation	–	24 h, distribution mode 2	–	point of departure	17 µM

Excerpt of the above:
SMILES	target or system	assay	system	setting	how to read	endpoint	result
Nc1ncc(-c2nc(N3CCOCC3)nc(N3CCOCC3)n2)c(C(F)F)n1	SUP-T1	–	–	72 h	–	GI50	276 nM
CCN(CC)c1ccc(C=NNC(=O)CSc2nc3ccccc3c(=O)n2Cc2ccc(S(N)(=O)=O)cc2)c(O)c1	OVCAR-5	NCI five-dose screen	–	–	–	CC50	> 100000 nM
COc1cc(C[C@@H](C)[C@@H](C)Cc2cc(O)c(OC)c(OC)c2)cc(O)c1OC	THP-1, PMA-differentiated	–	–	10 µM, 24 h, with: LPS 1 µg/mL	relative to: LPS model	IL-6 mRNA level	decreased
COc1ccc2c(c1)[nH]c1c(C)nccc12	DU-145	bisulfite pyrosequencing, measured: RASSF1A promoter CpG site 20	–	10 µM, 16 h	–	DNA methylation	83.8%
